Results collected from several papers.
Every numbered part comes from another study and shows a few of its results, in no order. Positions count from the first letter of the parent shown.

Set 1 — technique: protein-binding microarray; molecule type: double-stranded DNA, one strand shown; medium: in vitro; tested at: 2540 nM top; notes: 60-bp whole probe; together with: salmon DNA 0.4 mg/ml; reference: random background probes; reading: higher = stronger binding
Target: Interferon regulatory factor 3, full length, phosphomimetic (IRF3, Homo sapiens, UniProt Q14653, residues 1-427, S386D/S396D/S398D/S402D/T404D/S405D)
Construct (chain): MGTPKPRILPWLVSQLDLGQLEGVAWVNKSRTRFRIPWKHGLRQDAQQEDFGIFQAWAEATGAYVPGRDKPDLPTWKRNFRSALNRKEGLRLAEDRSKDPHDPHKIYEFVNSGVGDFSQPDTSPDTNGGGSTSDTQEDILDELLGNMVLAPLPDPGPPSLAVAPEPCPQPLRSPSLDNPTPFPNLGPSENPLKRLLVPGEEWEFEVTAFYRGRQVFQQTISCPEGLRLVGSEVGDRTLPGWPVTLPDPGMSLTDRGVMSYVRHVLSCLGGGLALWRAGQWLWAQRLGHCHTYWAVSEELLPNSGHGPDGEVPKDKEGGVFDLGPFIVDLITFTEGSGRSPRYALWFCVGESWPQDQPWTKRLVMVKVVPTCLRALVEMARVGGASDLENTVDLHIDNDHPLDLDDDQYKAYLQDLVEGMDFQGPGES
| Strand | fitted relative affinity [z-score] |
| --- | --- |
| GCCTAGCACTCACTTTCCAACTCTGTTACTGTGCTAGTCTTGATTCGCTTGACGCTGCTG | 7.01 |
| GCCTAGCACTCACTTTTGGCTTTCCTACTGTGCTAGGTCTTGATTCGCTTGACGCTGCTG | 1.72 |
| GCCTAGCACGACGATCTGAGTTTCGAGACGTGCTAGGTCTTGATTCGCTTGACGCTGCTG | 1.33 |

Set 2 — technique: protein binding microarray; molecule type: double-stranded DNA, one strand shown; medium: in vitro; tested at: not given; reference: not given; reading: higher = stronger binding
Target: Histone acetyltransferase KAT6A, winged helix 2, GST fusion (KAT6A, Homo sapiens, UniProt Q92794, residues 85-181)
Notes: 8-mer, flanks averaged, mean of 2 arrays, mostly near background
Construct (chain): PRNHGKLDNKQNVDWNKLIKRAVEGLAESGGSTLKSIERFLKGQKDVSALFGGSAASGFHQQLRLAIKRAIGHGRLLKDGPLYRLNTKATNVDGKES
| Strand | E-score |
| --- | --- |
| TTATGGAA | -0.188 |
| AGTATACG | -0.0461 |
| ATGAGCTG | -0.00945 |
| GATAACGA | -0.041 |

Mixed results — CREBL2: CREBL2, bZIP domain (human)
P1: JUN, bZIP domain (human); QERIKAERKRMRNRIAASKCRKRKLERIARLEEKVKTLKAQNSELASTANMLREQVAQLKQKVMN; partner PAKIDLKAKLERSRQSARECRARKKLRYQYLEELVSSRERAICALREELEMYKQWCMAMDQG
| Substance | target | test | test system | setting | how to read | quantity | result |
| --- | --- | --- | --- | --- | --- | --- | --- |
| P1 I28V | CREBL2 | DHFR protein complementation | yeast | single substitutions, most at no-binding floor | reference: wild-type JUN-FOS pair, higher = stronger binding | binding fitness | -1.21 natural log |
| PhoQ, residues 284 288 289 292 302 303 SMMNNA | PhoP, residues 12 14 15 18 19 GQAIL (Escherichia coli, UniProt P23836) | Sort-seq, refers to: YFP reporter | E. coli | PhoQ-PhoP variant library, together with: 10 µM Mg2+ | reference: high Mg2+ state, higher = stronger signaling | fold induction | 13.1 |
| P1 R53L | CREBL2 | DHFR protein complementation | yeast | single substitutions, most at no-binding floor | reference: wild-type JUN-FOS pair, higher = stronger binding | binding fitness | -1.51 natural log |

Repeated from above (set 1):
| Strand | fitted relative affinity [z-score] |
| --- | --- |
| GCCTAGCACGACGATCTGAGTTTCGAGACGTGCTAGGTCTTGATTCGCTTGACGCTGCTG | 1.33 |
